# Measured values gathered from unrelated publications.
# A part holds a random share of what one study measured. Values joined by “and” are separate records of one study, mostly repeats; a detail may differ.
# Chain of UniProt P0C1S8 (whole entry, looked up): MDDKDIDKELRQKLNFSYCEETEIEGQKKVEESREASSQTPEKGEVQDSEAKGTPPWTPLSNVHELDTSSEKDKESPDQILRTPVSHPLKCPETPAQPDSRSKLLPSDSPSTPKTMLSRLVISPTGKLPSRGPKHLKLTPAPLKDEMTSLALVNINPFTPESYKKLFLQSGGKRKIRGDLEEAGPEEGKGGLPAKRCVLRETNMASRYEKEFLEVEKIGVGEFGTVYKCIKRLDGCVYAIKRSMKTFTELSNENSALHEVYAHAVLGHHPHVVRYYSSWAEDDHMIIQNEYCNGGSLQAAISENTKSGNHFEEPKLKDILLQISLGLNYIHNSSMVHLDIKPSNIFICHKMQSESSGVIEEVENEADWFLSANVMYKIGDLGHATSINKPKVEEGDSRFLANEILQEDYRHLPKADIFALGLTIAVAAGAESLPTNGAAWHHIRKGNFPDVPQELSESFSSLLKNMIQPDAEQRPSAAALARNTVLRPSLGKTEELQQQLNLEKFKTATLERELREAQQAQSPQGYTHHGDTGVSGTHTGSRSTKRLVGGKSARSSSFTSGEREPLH
# Chain of UniProt Q08345 (whole entry, looked up): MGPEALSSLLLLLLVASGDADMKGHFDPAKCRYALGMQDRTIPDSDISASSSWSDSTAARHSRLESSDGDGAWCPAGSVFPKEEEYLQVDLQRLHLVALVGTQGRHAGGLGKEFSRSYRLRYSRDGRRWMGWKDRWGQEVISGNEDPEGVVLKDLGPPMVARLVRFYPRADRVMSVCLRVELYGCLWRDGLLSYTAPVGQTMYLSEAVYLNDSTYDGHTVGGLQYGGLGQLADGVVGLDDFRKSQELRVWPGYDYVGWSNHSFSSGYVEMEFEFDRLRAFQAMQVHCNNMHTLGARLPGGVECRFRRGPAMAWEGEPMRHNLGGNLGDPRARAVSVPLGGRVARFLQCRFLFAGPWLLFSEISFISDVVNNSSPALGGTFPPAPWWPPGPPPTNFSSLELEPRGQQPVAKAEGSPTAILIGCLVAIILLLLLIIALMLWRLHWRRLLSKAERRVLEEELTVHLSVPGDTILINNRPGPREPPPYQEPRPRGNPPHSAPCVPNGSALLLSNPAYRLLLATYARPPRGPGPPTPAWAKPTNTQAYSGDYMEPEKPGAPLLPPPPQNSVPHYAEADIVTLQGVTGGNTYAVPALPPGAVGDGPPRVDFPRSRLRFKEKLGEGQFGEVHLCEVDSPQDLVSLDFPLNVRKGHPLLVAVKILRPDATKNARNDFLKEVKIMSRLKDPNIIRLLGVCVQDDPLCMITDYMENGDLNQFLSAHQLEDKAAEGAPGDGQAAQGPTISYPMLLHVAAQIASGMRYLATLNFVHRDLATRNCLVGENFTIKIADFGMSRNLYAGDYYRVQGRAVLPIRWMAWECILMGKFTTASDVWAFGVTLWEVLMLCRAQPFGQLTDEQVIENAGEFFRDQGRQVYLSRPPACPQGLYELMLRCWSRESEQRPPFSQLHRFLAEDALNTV
# Chain of UniProt P80192 (whole entry, looked up): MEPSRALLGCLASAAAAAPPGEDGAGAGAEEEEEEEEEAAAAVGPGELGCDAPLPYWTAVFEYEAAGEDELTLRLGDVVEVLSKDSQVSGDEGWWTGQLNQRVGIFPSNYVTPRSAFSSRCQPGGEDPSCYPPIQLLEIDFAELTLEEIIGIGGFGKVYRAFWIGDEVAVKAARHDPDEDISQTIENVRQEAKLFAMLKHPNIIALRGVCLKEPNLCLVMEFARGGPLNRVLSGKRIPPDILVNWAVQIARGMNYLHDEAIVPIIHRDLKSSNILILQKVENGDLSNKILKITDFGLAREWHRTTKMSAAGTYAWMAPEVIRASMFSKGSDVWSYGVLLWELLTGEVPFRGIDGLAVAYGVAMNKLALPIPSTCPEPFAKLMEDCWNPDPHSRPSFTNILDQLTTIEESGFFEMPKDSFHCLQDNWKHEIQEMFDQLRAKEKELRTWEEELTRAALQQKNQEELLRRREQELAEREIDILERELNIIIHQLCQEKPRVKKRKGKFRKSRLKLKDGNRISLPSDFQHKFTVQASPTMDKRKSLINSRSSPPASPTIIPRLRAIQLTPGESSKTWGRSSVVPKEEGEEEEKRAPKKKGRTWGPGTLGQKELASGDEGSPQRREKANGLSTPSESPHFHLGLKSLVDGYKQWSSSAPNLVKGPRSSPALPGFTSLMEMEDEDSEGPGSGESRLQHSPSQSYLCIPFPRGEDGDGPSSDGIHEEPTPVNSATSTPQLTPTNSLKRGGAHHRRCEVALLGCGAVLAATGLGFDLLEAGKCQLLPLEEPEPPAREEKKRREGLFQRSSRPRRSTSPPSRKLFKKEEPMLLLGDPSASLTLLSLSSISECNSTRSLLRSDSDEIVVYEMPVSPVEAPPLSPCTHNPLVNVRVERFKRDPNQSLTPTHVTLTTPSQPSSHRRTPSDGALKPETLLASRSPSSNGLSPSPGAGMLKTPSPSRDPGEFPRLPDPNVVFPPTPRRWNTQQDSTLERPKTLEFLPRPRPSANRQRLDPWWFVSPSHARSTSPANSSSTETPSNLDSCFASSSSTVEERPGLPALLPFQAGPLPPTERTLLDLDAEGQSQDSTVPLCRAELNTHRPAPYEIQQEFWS
# Chain of UniProt O00238 (whole entry, looked up): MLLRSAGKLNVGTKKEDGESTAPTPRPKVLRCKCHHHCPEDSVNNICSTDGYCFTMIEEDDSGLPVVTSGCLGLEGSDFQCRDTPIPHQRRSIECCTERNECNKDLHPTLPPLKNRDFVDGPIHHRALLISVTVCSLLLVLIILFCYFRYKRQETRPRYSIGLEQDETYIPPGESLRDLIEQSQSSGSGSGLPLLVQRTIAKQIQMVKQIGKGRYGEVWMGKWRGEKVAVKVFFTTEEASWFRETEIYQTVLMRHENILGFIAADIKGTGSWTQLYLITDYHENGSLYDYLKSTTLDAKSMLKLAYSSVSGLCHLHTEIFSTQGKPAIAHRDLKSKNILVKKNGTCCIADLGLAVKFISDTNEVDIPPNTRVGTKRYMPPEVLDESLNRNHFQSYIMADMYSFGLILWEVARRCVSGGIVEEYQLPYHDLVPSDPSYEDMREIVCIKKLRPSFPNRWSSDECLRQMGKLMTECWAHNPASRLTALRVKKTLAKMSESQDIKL

# Sample 1
# Compound: C[C@@H]1CN(c2ccc(-c3cc(C(=O)NCCOCCOCCOCCOCCNC(=O)/C=C/c4[nH]cc(C(=O)N[C@@H](CC(N)=O)c5ccc(F)c(Cl)c5)c4-c4ccc(Cl)cc4F)ccc3F)cc2NC(=O)c2c[nH]c(=O)cc2C(F)(F)F)C[C@H](C)N1C
# Observed: thermal unfolding
# Technique: differential scanning fluorimetry
# Tested at: 5.5 µM
# Reading: higher = more unfolded
# DCAF1: DDB1- and CUL4-associated factor 1 (DCAF1, Homo sapiens, UniProt Q9Y4B6)
# Chain of UniProt Q9Y4B6 (whole entry, looked up): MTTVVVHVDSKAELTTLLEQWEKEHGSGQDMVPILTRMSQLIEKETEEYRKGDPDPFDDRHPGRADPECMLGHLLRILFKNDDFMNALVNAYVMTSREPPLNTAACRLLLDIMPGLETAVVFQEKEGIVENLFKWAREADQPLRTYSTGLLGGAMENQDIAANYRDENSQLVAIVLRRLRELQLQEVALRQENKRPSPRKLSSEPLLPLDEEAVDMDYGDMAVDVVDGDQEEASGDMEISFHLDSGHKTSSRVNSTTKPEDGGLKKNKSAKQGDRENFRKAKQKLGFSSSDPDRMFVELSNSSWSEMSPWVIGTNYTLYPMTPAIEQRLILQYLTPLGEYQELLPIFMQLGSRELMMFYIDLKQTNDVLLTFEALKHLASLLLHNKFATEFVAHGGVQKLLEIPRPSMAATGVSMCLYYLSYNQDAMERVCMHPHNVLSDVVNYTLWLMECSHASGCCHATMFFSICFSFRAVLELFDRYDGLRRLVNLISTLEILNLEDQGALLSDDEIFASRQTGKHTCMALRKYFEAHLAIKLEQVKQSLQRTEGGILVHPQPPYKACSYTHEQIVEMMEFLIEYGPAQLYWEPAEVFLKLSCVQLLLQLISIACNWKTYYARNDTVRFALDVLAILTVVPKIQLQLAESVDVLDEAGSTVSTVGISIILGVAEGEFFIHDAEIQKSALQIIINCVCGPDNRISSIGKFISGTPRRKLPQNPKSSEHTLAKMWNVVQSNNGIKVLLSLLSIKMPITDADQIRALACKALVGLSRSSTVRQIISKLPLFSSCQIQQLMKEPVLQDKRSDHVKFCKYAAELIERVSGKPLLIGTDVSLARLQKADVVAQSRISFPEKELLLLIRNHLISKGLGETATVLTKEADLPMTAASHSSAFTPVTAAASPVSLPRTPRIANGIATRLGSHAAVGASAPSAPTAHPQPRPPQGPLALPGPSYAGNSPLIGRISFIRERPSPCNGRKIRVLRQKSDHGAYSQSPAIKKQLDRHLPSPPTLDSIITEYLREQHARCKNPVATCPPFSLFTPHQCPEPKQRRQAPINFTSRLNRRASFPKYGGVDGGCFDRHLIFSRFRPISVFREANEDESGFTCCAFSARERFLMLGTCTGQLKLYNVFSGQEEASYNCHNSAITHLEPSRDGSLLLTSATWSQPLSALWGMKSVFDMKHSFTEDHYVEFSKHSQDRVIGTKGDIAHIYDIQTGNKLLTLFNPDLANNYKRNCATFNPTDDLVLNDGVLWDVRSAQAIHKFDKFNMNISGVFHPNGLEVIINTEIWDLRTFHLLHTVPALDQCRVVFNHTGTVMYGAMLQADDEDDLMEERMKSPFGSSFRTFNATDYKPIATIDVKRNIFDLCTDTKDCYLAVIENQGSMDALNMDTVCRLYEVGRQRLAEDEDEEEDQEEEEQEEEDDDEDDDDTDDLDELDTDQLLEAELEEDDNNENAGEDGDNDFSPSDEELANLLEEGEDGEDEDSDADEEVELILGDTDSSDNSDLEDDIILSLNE
# WDR5: WD repeat-containing protein 5 (WDR5, Homo sapiens, UniProt P61964)
target,setting,SYPRO Orange fluorescence
DCAF1,64.61 °C,58200 a.u.
DCAF1,52.01 °C,16900 a.u.
DCAF1,25.6 °C,8980 a.u.
WDR5,88.81 °C,52400 a.u.
DCAF1,46.8 °C,13800 a.u.
DCAF1,66.61 °C,59200 a.u.
WDR5,31.6 °C,12700 a.u.
WDR5,36 °C,13400 a.u.
WDR5,33.6 °C,13100 a.u.
WDR5,43.6 °C,15000 a.u.
WDR5,93.41 °C,47100 a.u.

# Sample 2
# SMILES: CCN1/C(=C/C=C2\CCCC(/C=C/C3=[N+](CC)c4ccccc4C3(C)C)=C2NCCCCCCCCN2CCC(Nc3nc4ccccc4n3Cc3ccc(F)cc3)CC2)C(C)(C)c2ccccc21
# Cell line: U-87 MG
# Tested at: concentration not given
# Relative to: DMSO
test,log2 fold change
measured: ANK2 mRNA,0.926
measured: P2RX6 mRNA,-2.72
measured: SH3D19 mRNA,-1.07
measured: JMY mRNA,1.57
measured: IFIT1 mRNA,-2.58
measured: ANXA8L1 mRNA,-1.92
measured: ASPM mRNA,-2.84
measured: RAB3IP mRNA,0.944
measured: SMAD6 mRNA,-1.63
measured: BAG1 mRNA,0.858
measured: TANC1 mRNA,-1.08
measured: EID3 mRNA,2.7
measured: NTNG1 mRNA,-1.16
measured: TLR1 mRNA,-1.73
measured: NETO1 mRNA,3.48
measured: MYPN mRNA,-2.45

# Sample 3
# SMILES: Cc1ccc(O)c(C)c1-c1cnc2[nH]c(-c3cnc(N4CCC5(CC4)CC(N4CCN(c6ccc(N[C@H]7CCC(=O)NC7=O)cc6F)CC4)CO5)nc3)cc2c1C#N (single isomer, unassigned)
# Target: Protein cereblon (CRBN, Homo sapiens, UniProt Q96SW2)
# Chain of UniProt Q96SW2 (whole entry, looked up): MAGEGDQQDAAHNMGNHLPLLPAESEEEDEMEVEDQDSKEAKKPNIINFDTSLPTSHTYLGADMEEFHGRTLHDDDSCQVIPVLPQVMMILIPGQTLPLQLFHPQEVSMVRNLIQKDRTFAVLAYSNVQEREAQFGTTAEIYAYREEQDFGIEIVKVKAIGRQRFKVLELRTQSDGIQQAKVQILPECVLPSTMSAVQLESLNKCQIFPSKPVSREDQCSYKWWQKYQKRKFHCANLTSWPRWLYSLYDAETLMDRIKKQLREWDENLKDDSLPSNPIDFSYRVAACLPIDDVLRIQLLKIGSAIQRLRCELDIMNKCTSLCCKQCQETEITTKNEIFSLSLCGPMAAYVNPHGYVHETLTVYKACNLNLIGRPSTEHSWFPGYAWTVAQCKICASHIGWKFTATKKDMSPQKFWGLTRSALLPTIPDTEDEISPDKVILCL
setting,binding
10000 nM,50% and 47.1%
30000 nM,68.7% and 71.1%
4.57 nM,3.49% and 4.58%

# Sample 4
# SMILES: CC[C@@]1(c2cccc(-c3c(F)cncc3OC)c2)C2=C(Nc3n[nH]cc31)[C@H](F)C(C)(C)CC2=O (single isomer, unassigned)
# Tested at: 1 µM
target,test,how to read,remaining binding
"BMPR1B (Homo sapiens, UniProt O00238)","binding, competition with immobilised ligand",,67%
"HIPK1 (Homo sapiens, UniProt Q86Z02)","kinase binding, KINOMEscan",relative to: DMSO control,77%
"MAP3K9 (Homo sapiens, UniProt P80192)","kinase binding, KINOMEscan",relative to: DMSO control,93%
"MAP3K15 (Homo sapiens, UniProt Q6ZN16)","kinase binding, KINOMEscan",relative to: DMSO control,84%
"DDR1 (Homo sapiens, UniProt Q08345)","binding, competition with immobilised ligand",,78%
"WEE2 (Homo sapiens, UniProt P0C1S8)","kinase binding, KINOMEscan",relative to: DMSO control,74%

# For quick reference, copied from above (sample 2):
test,log2 fold change
measured: SH3D19 mRNA,-1.07
measured: RAB3IP mRNA,0.944
measured: EID3 mRNA,2.7
measured: TLR1 mRNA,-1.73
